Measurements collected from several papers.
Cell line: MDA-MB-468

CCCCN(CCCC)CC(=O)N1CCN(CC(OCc2ccc3ccccc3c2)c2ccc(Cl)cc2Cl)CC1 (stereo not shown) — IC50 (cell growth or viability, MTT; 24 h): 38.3 µM
Cc1cc(C)nc(NC(=S)N2CCN(c3ccncc3)CC2)c1 — M+3 serine and glycine pools (serine synthesis; 10 µM, 4 h, with: U-13C-glucose): no effect
Clc1ccc(C(Cn2cnc3ccccc32)OCc2ccc3ccccc3c2)c(Cl)c1 (stereo not shown) — IC50 (cell growth or viability, MTT; 24 h): > 50 µM
C1=[N+]2CCCC[N+]3=Cc4ccc5[n]4[Au-]23[n]2c1ccc2-c1nc2ccccc2nc1-5.F[P-](F)(F)(F)(F)F — TGI (NCI60 five-dose screen): 5.51 -log M
CC(C)NCCCn1c(Sc2cc(Cl)cc(C#CC3CC3)c2)nc2c(N)ncnc21 — IC50 (cell growth or viability, resazurin; 72 h): 8.2 µM
O=C(c1ccc([N+](=O)[O-])cc1)N1CCN(CC(OCc2ccc3ccccc3c2)c2ccc(Cl)cc2Cl)CC1 (stereo not shown) — IC50 (cell growth or viability, MTT; 24 h): 38.8 µM
CC(C)NCCCn1c(Sc2cc(Cl)cc(Cl)c2)nc2c(N)ncnc21 — IC50 (cell growth or viability, resazurin; 72 h): 0.11 µM
Clc1ccc(COC(Cn2cncn2)c2ccc(Cl)cc2Cl)cc1 (stereo not shown) — IC50 (cell growth or viability, MTT; 24 h): 40.9 µM
C=Cc1cc(Cl)cc(Sc2nc3c(N)ncnc3n2CCCNC(C)C)c1 — IC50 (cell growth or viability, resazurin; 72 h): 0.13 µM
Clc1ccc(C(Cn2cncn2)OCc2ccc(Br)cc2)c(Cl)c1 (stereo not shown) — IC50 (cell growth or viability, MTT; 24 h): 38 µM
Cc1cc(C)nc(NC(=S)N2CCN(Cc3ccc(C(F)(F)F)cc3)CC2)c1 — M+3 serine pool (isotope labelling; 10 µM, 4 h, with: U-13C-glucose): decreased
CC(C)NCCCn1c(Sc2cc(Cl)cc(-c3ccc[nH]3)c2)nc2c(N)ncnc21 — IC50 (cell growth or viability, resazurin; 72 h): 0.28 µM
Cc1nc2c(F)cc(-c3nc(Nc4ccc(CNC(=O)CCCCCCC(=O)NO)cc4)ncc3F)cc2n1C(C)C — inhibition (cell growth or viability, CCK-8; 0.3 µM, 48 h): 100%
CCCC(CCC)C(=O)OCc1cn(-c2cc3ccccc3oc2=O)nn1 — growth percentage (NCI60 single-dose screen; 10 µM): 94.5%
CN1CCN(CC(=O)N2CCN(CC(OCc3ccc4ccccc4c3)c3ccc(Cl)cc3Cl)CC2)CC1 (stereo not shown) — IC50 (cell growth or viability, MTT; 24 h): 5.81 µM
O=S1(=O)CC2CCCCC2CS1 (stereo not shown) — viability (MTT; 100 µM, 72 h): 1.74%
CC(C)(C)OC(=O)N1CCN(CC(OCc2ccc(Br)cc2)c2ccc(Cl)cc2Cl)CC1 (stereo not shown) — IC50 (cell growth or viability, MTT; 24 h): 22.8 µM
CCN(C(=O)c1cc(F)ccc1Oc1nncnc1N1CCC2(C1)CN([C@H](CCCN(C)CCOC)C(C)C)C2)C(C)C — GI50 (cell growth or viability; 72 h): > 10 µM
C#CCCCC(O)/C=C/C(=O)NC1(c2ccc(-c3nc4ccn5c(=O)[nH]nc5c4cc3-c3ccccc3)cc2)CCC1 (stereo not shown) — G2/M phase cells (flow cytometry PI; EC60, 72 h): 26.1%
CC(C)NCCCn1c(Sc2cc(Cl)cc(-c3cccs3)c2)nc2c(N)ncnc21 — IC50 (cell growth or viability, resazurin; 72 h): 5.7 µM
C#CCCCC(F)/C=C/C(=O)NC1(c2ccc(-c3nc4ccn5c(=O)[nH]nc5c4cc3-c3ccccc3)cc2)CCC1 (stereo not shown) — cells in S phase (flow cytometry, PI staining; EC80 concentration, 72 h, DMSO 22.2): 16.6%
O=C(Nc1nnc2c1c(-c1ccc(Cl)cc1)nc1sc(=Cc3ccco3)c(=O)n12)c1ccccc1 (mixture of isomers) — growth percent (NCI60 SRB; 10 µM): 46.1%
Nc1ncnc2c1nc(Sc1cc(Cl)cc(Cl)c1)n2CCCn1ccnc1 — IC50 (cell growth or viability, resazurin; 72 h): > 10 µM
O=C(c1ccc(Br)cc1)N1CCN(CC(OCc2ccc3ccccc3c2)c2ccc(Cl)cc2Cl)CC1 (stereo not shown) — IC50 (cell growth or viability, MTT; 24 h): 43.5 µM
Cc1nc2c(F)cc(-c3nc(Nc4ccc(CNC(=O)CCCC(=O)NO)cc4)ncc3F)cc2n1C(C)C — inhibition (cell growth or viability, CCK-8; 0.3 µM, 48 h): 82.9%

Repeated from above:
C1=[N+]2CCCC[N+]3=Cc4ccc5[n]4[Au-]23[n]2c1ccc2-c1nc2ccccc2nc1-5.F[P-](F)(F)(F)(F)F — TGI (NCI60 five-dose screen): 5.51 -log M
CC(C)NCCCn1c(Sc2cc(Cl)cc(C#CC3CC3)c2)nc2c(N)ncnc21 — IC50 (cell growth or viability, resazurin; 72 h): 8.2 µM
O=C(c1ccc([N+](=O)[O-])cc1)N1CCN(CC(OCc2ccc3ccccc3c2)c2ccc(Cl)cc2Cl)CC1 (stereo not shown) — IC50 (cell growth or viability, MTT; 24 h): 38.8 µM
CC(C)NCCCn1c(Sc2cc(Cl)cc(Cl)c2)nc2c(N)ncnc21 — IC50 (cell growth or viability, resazurin; 72 h): 0.11 µM
